# Results collected from several papers.
# Lines come from different studies, so protocols differ.
Structure (SMILES),test,system,conditions,plasma concentration
C[C@]12C=CC(=O)C=C1CC[C@@H]1[C@@H]2[C@@H](O)C[C@@]2(C)[C@H]1CC[C@]2(O)C(=O)CO,,"human castration-resistant prostate cancer, plasma","10 mg daily, 48 days, median, with: abiraterone acetate 1000 mg daily",153 nM
CCCCCCCCCCCCCCC[C@H](O)[C@@H](N)CO,,human patients,"intravenous, 750 to 930 mg/m2, up to 4 h",≥ 5000 nM
CC(O)CO (stereo not drawn),GC-FID,"human, plasma","dose not given, 30 min, after liquid APAP preparation",62000 ng/mL
CN1Cc2c(Cl)cc(Cl)cc2[C@H](c2cccc(S(=O)(=O)NCCOCCOCCNC(=O)NCCCCNC(=O)NCCOCCOCCNS(=O)(=O)c3cccc([C@@H]4CN(C)Cc5c(Cl)cc(Cl)cc54)c3)c2)C1,,"healthy human volunteers, plasma","oral, 15 mg twice daily, day 5, all below quantitation limit",< 0.5 ng/mL
CNc1nc(Nc2ccc(-n3cnc(C)n3)c(OC)c2)nc2c1CC[C@H]2c1ccc(F)cc1,,human,"oral, 100 mg once daily, 24 h, day 14, multiple ascending dose, geometric mean",308 ng/mL
Fc1ccc([C@@H]2CCNC[C@H]2COc2ccc3c(c2)OCO3)cc1,,healthy human subjects,"oral, 20 mg once daily, 6 h post-dose, day 13",45.2 ng/mL
CN1CCc2nc(C(=O)N[C@@H]3C[C@@H](C(=O)N(C)C)CC[C@@H]3NC(=O)C(=O)Nc3ccc(Cl)cn3)sc2C1,,"human, plasma","60 mg, 24 h, fed, with: dronedarone",5.9 ng/mL
CNC(=O)c1cc(Oc2ccc(NC(=O)Nc3ccc(Cl)c(C(F)(F)F)c3)c(F)c2)ccn1,,human,"dose not given, with: chemotherapy",no effect
C=C[C@@H]1C[C@]1(NC(=O)[C@@H]1C[C@@H]2CN1C(=O)[C@H](C(C)(C)C)NC(=O)O[C@@H]1C[C@H]1CCCCCc1nc3ccc(OC)cc3nc1O2)C(=O)NS(=O)(=O)C1CC1,,"healthy adult humans, plasma","oral, 100 mg, 24 h, fixed-dose combination with elbasvir 50 mg, fasted",6 nM
O=C(c1nc2n(n1)[C@H](c1ccccc1)C[C@@H]2F)C1CC1,,"humans, plasma","oral, 75 mg single dose, 24 h, high-fat meal",210 ng/mL
Cc1ccccc1C(=O)Nc1ccc(C(=O)N2CCCC(O)c3cc(Cl)ccc32)c(C)c1 (stereo not drawn),,"healthy humans, plasma","oral, 90 mg, 2 h postdose, day 4, with: rosuvastatin",422 ng/mL
CC(C)(C)NC(=O)N[C@H](C(=O)N1C[C@H]2[C@@H]([C@H]1C(=O)NC(CC1CCC1)C(=O)C(N)=O)C2(C)C)C(C)(C)C (stereo partly drawn),,human,"oral, 800 mg three times daily, 8 h, day 10, geometric mean, with: maraviroc 150 mg twice daily",80.7 ng/mL

# A few entries again:
Structure (SMILES),test,system,conditions,plasma concentration
CC(O)CO (stereo not drawn),GC-FID,"human, plasma","dose not given, 30 min, after liquid APAP preparation",62000 ng/mL
